Published values collected from several papers.
A part holds a random share of what one study measured.

Study 1 — method: protein-binding microarray; form: double-stranded DNA, one strand shown; sample: in vitro; concentration: 2200 nM top; notes: 60-bp whole probe; added: salmon DNA 0.4 mg/ml; reference: random background probes; reading: higher = stronger binding; shared flanks, not repeated: GCCTAGCAC … GTCTTGATTCGCTTGACGCTGCTG
Target: Interferon regulatory factor 7, full length, phosphomimetic (IRF7, Homo sapiens, UniProt Q92985, residues 1-503, S471D/S472D/S475D/S476D/S477D/S483D/S484D/S487D)
UniProt Q92985, sequence (whole entry, unmodified, looked up): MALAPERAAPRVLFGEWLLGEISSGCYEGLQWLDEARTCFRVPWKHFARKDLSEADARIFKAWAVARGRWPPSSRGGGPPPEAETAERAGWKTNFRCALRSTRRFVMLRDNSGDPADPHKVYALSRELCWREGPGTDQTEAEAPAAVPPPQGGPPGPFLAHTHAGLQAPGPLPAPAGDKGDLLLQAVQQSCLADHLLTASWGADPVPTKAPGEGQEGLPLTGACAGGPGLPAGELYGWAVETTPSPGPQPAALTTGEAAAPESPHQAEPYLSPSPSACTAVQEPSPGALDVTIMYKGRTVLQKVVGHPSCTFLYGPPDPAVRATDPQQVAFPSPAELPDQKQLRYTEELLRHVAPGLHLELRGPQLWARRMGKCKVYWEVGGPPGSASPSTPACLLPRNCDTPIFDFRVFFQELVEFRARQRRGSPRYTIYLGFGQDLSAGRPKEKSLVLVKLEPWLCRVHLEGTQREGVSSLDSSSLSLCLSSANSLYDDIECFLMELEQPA
| Sequence | fitted relative affinity [z-score] |
| --- | --- |
| TTTGTTTCCATTTTCTGAATGTGCTAG | 6.36 |
| TTAGGTTTCGGGCCTGGGTTAGTGCTA | 2.03 |
| TTAGATATCAGTATGGATTAGTGCTAG | -0.199 |
| GACGGACTGGACTAGCGGGACGTGCTA | -1.04 |
| GTAGAACTGAGTATCGATTAGTGCTAG | -0.108 |
| TTAGATGCCAGTTTCGATTAGTGCTAG | 5.87 |
| GACGGACTGGGACTGGGGAAGTGCTAG | -0.978 |
| GACGGACTGCTTCTCCTCACGTGCTAG | 0.677 |
| CCAAATCTGTGTTATTAAAATGTGCTA | 0.367 |
| GACGGAGTGGACTTTCGGGACGTGCTA | 2.26 |
| GACGATTTCGGGACTGGCGACGTGCTA | 1.19 |
| GACGGTATCGACTTTTGGGACGTGCTA | 0.417 |
| ACTCGTGTTTTTCTCCTATTGTGCTAG | 2.74 |
| TCAGCTTTCTTTACCACACTGTGCTAG | 1.61 |
| TTATGTATCGGACTGGGTTAGTGCTAG | 0.588 |
| AACGGTTTCGGACTGGGGACGTGCTAG | 4.05 |
| TCACTTCTGTTTTTGCTACTGTGCTAG | 3.25 |
| GAACTTTGGCCTCTAGGTTTGTGCTAG | 0.305 |
| TTAGGTATCTGGTTTCGGTTAGTGCTA | 5.94 |
| TCGTAAGCAAAAATGATTGGGTGCTAG | -0.292 |

Study 2 — method: protein binding microarray; form: double-stranded DNA, one strand shown; sample: in vitro; concentration: not given; reference: not given; reading: higher = stronger binding
Target: Histone acetyltransferase KAT6A, winged helix 2, GST fusion (KAT6A, Homo sapiens, UniProt Q92794, residues 85-181)
Notes: 8-mer, flanks averaged, mean of 2 arrays, mostly near background
Target sequence (chain): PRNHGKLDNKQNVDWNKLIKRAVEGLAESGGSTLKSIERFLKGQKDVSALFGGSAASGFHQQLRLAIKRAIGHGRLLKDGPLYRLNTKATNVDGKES
| Sequence | E-score |
| --- | --- |
| ATTTTGGC | 0.232 |
| CCAGGAGA | 0.0291 |
| ACCAACAC | 0.0615 |
| CGCACTTA | -0.0341 |
| GTAGGAAC | 0.0316 |
| AACTTCAT | -0.0419 |
| CGAGACGA | -0.156 |
| TTATGCAA | 0.114 |
| AGATATGC | 0.0305 |
| AGTAGCGA | -0.00287 |
| TAATGAAA | 0.22 |
| AAGAAGTG | -0.252 |
| AGTACGTA | -0.0875 |
| GACATGGA | -0.0614 |
| CTCGCGAA | 0.015 |
| ACTTTATG | -0.103 |
| ATCTATTA | -0.00173 |
| CATAGGAA | -0.12 |
| CTGAACAG | 0.115 |
| ACCGTACT | -0.175 |
| ACTACATA | -0.0475 |
| CAGTGAAG | -0.0146 |
| CTTTCTGC | 0.0481 |

Study 3 — method: RNA Bind-n-Seq; form: RNA; sample: in vitro; concentration: 365 nM; reference: no-protein control; reading: higher = stronger binding
Target: RNA binding protein fox-1 homolog 2, RRM domain, GST-SBP tag (RBFOX2, Homo sapiens, UniProt O43251-10, residues 100-194)
Notes: natural RNA segment, single round, ends assumed
Shared flanks, not repeated: GGGAGUUCUACAGUCCGACGAUC … UGGAAUUCUCGGGUGCCAA
Target sequence (chain): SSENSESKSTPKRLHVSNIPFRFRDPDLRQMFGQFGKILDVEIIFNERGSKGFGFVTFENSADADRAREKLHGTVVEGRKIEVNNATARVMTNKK
| Sequence | RBNS enrichment (R) |
| --- | --- |
| CUGUUGAUGCUUCUUUGAAAAUCUUCGCUUGAUUUUGGCUGUAAAUCACCUACCCUGUUAAAUGCUGUUUAAUCCCAAGGAUGUAAGUUGAGGUGAGGUGUCUUCUCUGU | 0.344 |
| CCAAAAAGUCACCUCAGCAGCCUCCCCAGGCGAUACAGAGGGAGAGCCCAGACCACCACAGCUGGCCACGACAUUGCCCUUAAGUAAUAUGCAUUGGCCAGAGAGCCCGG | 0.364 |
| CUUUUUUUAAAAAAAAAAAGUCCUCAAAUCAGGAAGAAACAUCAAAGACUAUGUCCUAGUGGAGGGAGUAAUCCUAACACCCAGGCUGGCCGCCAGCUGGCACCUGCCUC | 0.254 |
| GGAGUGGCCACACCGCCUGUUGGAGAGGUCACUGAAAAAGACAUCACUGCAGAAGCAACUCCUGCACUCGCCCAGACUUUACCAGGGGGCAAAGAUGCCCAUGACGACAU | 0.368 |
| AAAGAGUUUCACUAUUUUGGAUAUAUUCUAAAGUGGACCUGAGCUAUUUGAGCAAAUAAUGAUAGGGCAUACUCAGACAUUUUAGCUACCUUUUAUACCUACGAUUUCAU | 0.399 |
| UGUCUGCUGCCACUGACAGUCCAGUGAAUCCUUUUCUGUCUGUUCCUAACAACUUUUAUUUGACACAUUAAAAAAUUUCUGACUGUCCUUAAGACAGUAGAGAUGUCUCU | 0.262 |
| CCCUGGGUCGCCGCUUCCACCCGGACCACUUCACAUGCACCUUCUGCCUGCGCCCGCUCACCAAGGGGUCCUUCCAGGAGCGCGCCGGCAAGCCCUACUGCCAGCCCUGC | 0.612 |
| UGGGCUGGAGAGCCUCUCUGUGCAGCGGUGUGGGGUGAGCCCUGCUGUGGCCUCCUUGUGGUGGUCCCUCUUCCCACGUGCAGCCCUGUUGGGAAGAAAGGAAGAAAACA | 0.434 |
| UUUUGAAGGCAUGAGGCCAGUGACCCAAAGCACAGGUGCAAGUGUGCCUGGAAGGCUUCCAGCCAAAACCAGUAAUUCCCUGCUUUCUUGUAUACAGAGUGUUCACUGCU | 0.387 |
| CCCCAACCCCAGAUGGGCCCAGGCAGGGAGCAGCCCUGCCCAUGCCCACACUACAGGCCCGGAGCUUUGGGGCUGGGUACAUGUGCCAAGCCUCCCUCCCUGGGCUACAG | 0.174 |
| UUUUGGAAAUGGGUGACCUGAAGUGACACUUUUUCCACAAUUAACCCAAGUUGUGUUAAUACUUCAGGUCUGUUUCCCAGACCCAGAAAGCUUUACAGAAAAUCAUUGUA | 0.338 |
| AGUUUGUUGGGGAUGUAGUGAUGGUGGUAAGGAUCAGACCUAGGGCCCAGUGUACACUUAAGCACAUGCCUAACUCAAGAGUUUAGAUUUUAGUAUAGUUUAAAGUUGAG | 0.455 |

Study 4 — method: RNA Bind-n-Seq; form: RNA; sample: in vitro; concentration: not given; notes: RNA with constant flanks, ends assumed; reference: input RNA pool; reading: higher = stronger binding
Target: RING finger protein unkempt homolog, zinc fingers 1-6, GST-SBP tag (UNK, Homo sapiens, UniProt Q9C0B0, residues 30-357)
UniProt Q9C0B0, sequence (30-357, looked up): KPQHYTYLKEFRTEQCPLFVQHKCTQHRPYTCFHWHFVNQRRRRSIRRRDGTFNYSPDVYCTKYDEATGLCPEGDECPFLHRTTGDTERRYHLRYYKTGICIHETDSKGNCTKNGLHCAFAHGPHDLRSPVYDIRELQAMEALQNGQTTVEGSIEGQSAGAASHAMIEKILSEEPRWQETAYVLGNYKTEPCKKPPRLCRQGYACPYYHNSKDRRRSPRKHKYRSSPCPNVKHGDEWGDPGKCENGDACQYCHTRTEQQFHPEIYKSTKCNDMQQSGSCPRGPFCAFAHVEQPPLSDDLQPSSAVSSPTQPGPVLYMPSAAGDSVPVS
Shared flanks, not repeated: GGGAGUUCUACAGUCCGACGAUC … CAACAGAGGAUUGAGCAUCA
| Sequence | bound/input enrichment |
| --- | --- |
| CAUUCUCUUAGUGAUGGGCUGGAGGAAGUCCAAAAAGCAGAAAUGAAAGCUUACAUGGAAUCCGUCAACAAUAUGCUGUUGACUGCAGAGCUGUAUCUUCAGUGGUGUGAUGAAGCUACA | 0.113 ratio |
| CCAAAAUCUAUUCUUCAGUUGCCAGAGACAGAACUGGGAGAAUAUUCCCUAGGGGGCUACCGCAUUUCAUUUCUGAAGCAGCUUAUUGCUGGCAAGCUCCAGGAAUCUGUUCCAGACCCG | 0.216 ratio |
| GCACAAAUCUUUCCCACUAGCCAUUUAAUAAGUUAAAAAAAGAUACAAAAACAAAAACCUACCCGUCUUGAACAAACUGUCAUACGUAUGGGACCUACACUUAAUCUAUAUGCUUUACAC | 38.8 ratio |
| AAUAUGGCAUCUUCCUUGCUUGCUAUAGCAGGGGAAGGGAAAAUGCCAGUCUUUUUAAUCCCGCAAGCUUCUCGAUCUUAUAAUUAUUAUUUUUUUAAAUUCUGGUCAUGGAUGCUUCUU | 2.06 ratio |
| UUUCGACAGUUUAUAUUGGUCAUGAAUGCAUUAGAUAACAGAGCUGCACGAAACCACGUGAACCGGAUGUGUCUGGCCGCUGAUGUGCCUCUCAUUGAGAGCGGGACUGCUGGGUAUCUC | 0.251 ratio |
| GUACUUGCUGUAGGAUUCAAGCUGUCUUUGCACUAGCUCUAAAGAAGAUUUUCUUCUGGUUUCCGAGAACUAAUUUUGUUUUAGCAUUAAACUGUUGAACUUUUUUUUGUACUUAGAAAA | 0.366 ratio |
| AGCACAACCCCAGCAAAGCUAAGAAAUCCUUGUACAAGUGAACAAAACUGCACCAGCCCAUUCCGCUACAAAAAUGUGCUUAGUCUUACUGACAGAGGAGAGUUUUUCAAUGAACUUGUU | 0.295 ratio |
| GAAGUUGCAAGCAAUGUUCCAAAAGUUGUAGGUUCUGCUGUUGGUAGCGGGUCCAUUACCCGUAACAUCGUGGCUUCCAAUAGUUUGCCUCCAGCCACCAUUGCUCCUCCAAAACCAGCA | 0.334 ratio |
| AGUUUCAGUAUCUCUGGCUGGAGUAUUGACUCACAAAAAGAACCAUCCAGAGAGCACAGUCCGCAUUAUGUCCCUGUGUGUGAGUGCUGUUACUUACGCCGUUUUGUAUCGUACAGUACA | 0.154 ratio |
| AAAAUAAACAGAAUAGACCAUGACCGGAGAGCGAUGGCUACUUUAUUGAGUAAAUUCCGGACCGACUUCUCUGAUAUCAUGGUCCUUGGAGAUAUCAACACCAAGCCAAAAAAAGAAAAU | 0.248 ratio |
| GUACAAGAAGAGCUUCUGAAGGGCCUGGAUAACAAGAACCCCAAGAUCAUAGUGGCCUGUACCGAAACACUGAGGAAAGCCUUAAGUGAAUUUGGUUCCAAAAUCAUCUCACUUAAGCCA | 0.409 ratio |

Study 5 — method: universal PBM; form: double-stranded DNA, one strand shown; sample: in vitro; concentration: 600 nM; reading: higher = stronger binding
Target: Sal-like protein 4, full length isoform A (SALL4, Homo sapiens, UniProt Q9UJQ4, residues 1-1053)
UniProt Q9UJQ4, sequence (whole entry, looked up): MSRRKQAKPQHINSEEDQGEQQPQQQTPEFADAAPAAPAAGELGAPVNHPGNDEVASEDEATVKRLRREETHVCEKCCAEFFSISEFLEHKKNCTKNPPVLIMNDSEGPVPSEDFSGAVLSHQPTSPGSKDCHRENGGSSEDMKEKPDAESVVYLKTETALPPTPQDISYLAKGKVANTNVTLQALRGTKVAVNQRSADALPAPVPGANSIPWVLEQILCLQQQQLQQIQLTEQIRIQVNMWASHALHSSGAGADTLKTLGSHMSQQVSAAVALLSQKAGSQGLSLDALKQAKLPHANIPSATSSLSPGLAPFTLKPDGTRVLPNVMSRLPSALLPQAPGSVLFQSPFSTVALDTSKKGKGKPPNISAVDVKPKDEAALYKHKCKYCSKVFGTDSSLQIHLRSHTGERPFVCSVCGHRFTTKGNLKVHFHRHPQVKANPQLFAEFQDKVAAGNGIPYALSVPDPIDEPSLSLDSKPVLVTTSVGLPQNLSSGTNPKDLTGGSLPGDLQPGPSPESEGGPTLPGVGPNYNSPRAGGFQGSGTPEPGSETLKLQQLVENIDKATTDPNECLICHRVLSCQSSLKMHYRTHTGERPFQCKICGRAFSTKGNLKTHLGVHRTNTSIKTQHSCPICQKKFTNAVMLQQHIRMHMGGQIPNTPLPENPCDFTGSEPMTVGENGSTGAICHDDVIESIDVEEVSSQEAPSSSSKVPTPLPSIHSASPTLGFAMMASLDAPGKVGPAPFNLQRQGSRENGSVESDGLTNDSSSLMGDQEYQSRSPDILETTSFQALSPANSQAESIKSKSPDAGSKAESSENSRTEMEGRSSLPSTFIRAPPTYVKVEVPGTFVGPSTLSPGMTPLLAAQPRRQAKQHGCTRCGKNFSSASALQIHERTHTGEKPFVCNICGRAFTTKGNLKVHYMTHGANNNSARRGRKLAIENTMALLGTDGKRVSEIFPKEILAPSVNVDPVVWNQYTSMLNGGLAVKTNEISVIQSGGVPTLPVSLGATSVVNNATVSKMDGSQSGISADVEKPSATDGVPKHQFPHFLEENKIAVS
Notes: 8-mer, flanks averaged, mean of replicates
| Sequence | E-score |
| --- | --- |
| AGCAGCAG | -0.145 |
| ACATGAGA | 0.242 |
| GTCCACCA | -0.214 |
| TAACCAAA | 0.235 |
| TAGTTAAA | 0.238 |
| CGCGGTCC | -0.399 |
| CCTGGCAC | -0.181 |
| ACGACGAG | 0.00039 |
| GTGAACTA | 0.166 |
| ATCCAGAC | -0.0704 |
| GAAGGCTC | -0.258 |
| CGCTGTGC | -0.23 |
| AAAACCTT | 0.0702 |
| CCAAGGTA | -0.0483 |
| GATACTCA | 0.046 |
| TGGGTAAA | -0.0587 |
| AGTGGTTG | -0.0601 |
| ATCTCACA | 0.119 |
| CGGTTTTA | -0.0891 |
| CGGGTTTC | -0.279 |
| AAATGTAG | 0.0783 |
| GCACTTGA | -0.0849 |
| CCGGAATA | 0.0271 |
| CGTTGTCA | -0.138 |
| CAACCCTG | -0.157 |

Study 6 — organism: Saccharomyces cerevisiae; observed: growth after mating arrest; method: competitive growth deep sequencing; form: peptide; notes: strain without Cln2 fusion; reading: direction not given
| Molecule | enrichment score |
| --- | --- |
| SMTDFYHSKRRLIFSK | 0.0606 |
| PKRAKRKLYTSEISSP | -0.156 |
| SSEVARHLLFQSHM | -0.0955 |
| PKNAKRNLSSEFAN | -0.423 |

For quick reference, copied from above (study 4):
| Sequence | bound/input enrichment |
| --- | --- |
| GUACUUGCUGUAGGAUUCAAGCUGUCUUUGCACUAGCUCUAAAGAAGAUUUUCUUCUGGUUUCCGAGAACUAAUUUUGUUUUAGCAUUAAACUGUUGAACUUUUUUUUGUACUUAGAAAA | 0.366 ratio |
| AGCACAACCCCAGCAAAGCUAAGAAAUCCUUGUACAAGUGAACAAAACUGCACCAGCCCAUUCCGCUACAAAAAUGUGCUUAGUCUUACUGACAGAGGAGAGUUUUUCAAUGAACUUGUU | 0.295 ratio |
| GAAGUUGCAAGCAAUGUUCCAAAAGUUGUAGGUUCUGCUGUUGGUAGCGGGUCCAUUACCCGUAACAUCGUGGCUUCCAAUAGUUUGCCUCCAGCCACCAUUGCUCCUCCAAAACCAGCA | 0.334 ratio |
| AGUUUCAGUAUCUCUGGCUGGAGUAUUGACUCACAAAAAGAACCAUCCAGAGAGCACAGUCCGCAUUAUGUCCCUGUGUGUGAGUGCUGUUACUUACGCCGUUUUGUAUCGUACAGUACA | 0.154 ratio |
| AAAAUAAACAGAAUAGACCAUGACCGGAGAGCGAUGGCUACUUUAUUGAGUAAAUUCCGGACCGACUUCUCUGAUAUCAUGGUCCUUGGAGAUAUCAACACCAAGCCAAAAAAAGAAAAU | 0.248 ratio |
| GUACAAGAAGAGCUUCUGAAGGGCCUGGAUAACAAGAACCCCAAGAUCAUAGUGGCCUGUACCGAAACACUGAGGAAAGCCUUAAGUGAAUUUGGUUCCAAAAUCAUCUCACUUAAGCCA | 0.409 ratio |
